Experimental data gathered from unrelated publications.
Every numbered part comes from another study and shows a few of its results, in no order. Values joined by “and” are separate records of one study, mostly repeats; a detail may differ.
Sequence of UniProt P08069 (whole entry, looked up): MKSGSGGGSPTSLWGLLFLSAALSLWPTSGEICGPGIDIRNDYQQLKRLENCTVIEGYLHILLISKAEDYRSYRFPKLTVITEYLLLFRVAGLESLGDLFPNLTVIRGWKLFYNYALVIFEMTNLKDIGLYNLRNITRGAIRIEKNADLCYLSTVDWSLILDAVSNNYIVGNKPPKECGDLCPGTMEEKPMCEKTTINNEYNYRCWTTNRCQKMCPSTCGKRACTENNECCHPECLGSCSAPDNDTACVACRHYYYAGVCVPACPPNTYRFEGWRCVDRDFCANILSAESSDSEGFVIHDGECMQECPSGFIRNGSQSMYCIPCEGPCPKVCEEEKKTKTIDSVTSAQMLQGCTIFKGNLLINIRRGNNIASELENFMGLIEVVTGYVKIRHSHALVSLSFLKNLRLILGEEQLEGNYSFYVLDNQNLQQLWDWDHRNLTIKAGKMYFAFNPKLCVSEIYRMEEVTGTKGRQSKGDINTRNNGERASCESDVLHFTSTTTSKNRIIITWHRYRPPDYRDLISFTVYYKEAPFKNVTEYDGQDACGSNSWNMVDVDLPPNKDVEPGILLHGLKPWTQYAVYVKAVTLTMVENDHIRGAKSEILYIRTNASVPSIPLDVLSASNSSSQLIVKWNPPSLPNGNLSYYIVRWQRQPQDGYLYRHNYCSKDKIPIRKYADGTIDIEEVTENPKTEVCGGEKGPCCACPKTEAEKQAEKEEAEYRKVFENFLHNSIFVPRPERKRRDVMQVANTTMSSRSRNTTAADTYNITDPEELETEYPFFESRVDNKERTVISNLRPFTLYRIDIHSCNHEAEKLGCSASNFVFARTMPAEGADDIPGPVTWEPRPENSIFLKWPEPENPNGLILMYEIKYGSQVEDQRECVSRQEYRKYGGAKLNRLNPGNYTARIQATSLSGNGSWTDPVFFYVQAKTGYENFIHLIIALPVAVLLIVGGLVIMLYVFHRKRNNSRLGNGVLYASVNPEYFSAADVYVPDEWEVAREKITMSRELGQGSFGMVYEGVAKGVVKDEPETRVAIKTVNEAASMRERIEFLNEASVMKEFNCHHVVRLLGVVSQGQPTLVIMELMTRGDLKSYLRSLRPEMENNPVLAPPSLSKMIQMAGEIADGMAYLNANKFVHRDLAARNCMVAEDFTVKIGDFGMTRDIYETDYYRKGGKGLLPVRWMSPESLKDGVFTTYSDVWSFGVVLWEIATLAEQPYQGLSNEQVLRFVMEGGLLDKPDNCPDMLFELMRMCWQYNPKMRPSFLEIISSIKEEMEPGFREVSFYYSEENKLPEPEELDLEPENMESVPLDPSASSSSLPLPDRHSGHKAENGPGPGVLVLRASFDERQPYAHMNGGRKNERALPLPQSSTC
Sequence of UniProt P07947 (whole entry, looked up): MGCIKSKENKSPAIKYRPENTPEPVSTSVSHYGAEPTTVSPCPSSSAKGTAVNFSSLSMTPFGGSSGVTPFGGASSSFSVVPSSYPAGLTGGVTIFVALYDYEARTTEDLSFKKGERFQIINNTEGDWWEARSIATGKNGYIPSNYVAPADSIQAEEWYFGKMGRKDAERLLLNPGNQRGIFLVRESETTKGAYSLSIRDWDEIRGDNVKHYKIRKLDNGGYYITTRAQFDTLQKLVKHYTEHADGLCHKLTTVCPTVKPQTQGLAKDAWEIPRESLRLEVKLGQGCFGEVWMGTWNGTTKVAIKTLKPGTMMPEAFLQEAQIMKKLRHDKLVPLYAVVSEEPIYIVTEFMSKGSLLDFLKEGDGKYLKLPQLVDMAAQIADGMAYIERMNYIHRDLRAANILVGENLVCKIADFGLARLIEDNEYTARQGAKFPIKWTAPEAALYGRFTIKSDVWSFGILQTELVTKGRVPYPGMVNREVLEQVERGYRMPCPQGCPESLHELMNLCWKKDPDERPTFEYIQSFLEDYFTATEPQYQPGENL
Sequence of UniProt O96013 (whole entry, looked up): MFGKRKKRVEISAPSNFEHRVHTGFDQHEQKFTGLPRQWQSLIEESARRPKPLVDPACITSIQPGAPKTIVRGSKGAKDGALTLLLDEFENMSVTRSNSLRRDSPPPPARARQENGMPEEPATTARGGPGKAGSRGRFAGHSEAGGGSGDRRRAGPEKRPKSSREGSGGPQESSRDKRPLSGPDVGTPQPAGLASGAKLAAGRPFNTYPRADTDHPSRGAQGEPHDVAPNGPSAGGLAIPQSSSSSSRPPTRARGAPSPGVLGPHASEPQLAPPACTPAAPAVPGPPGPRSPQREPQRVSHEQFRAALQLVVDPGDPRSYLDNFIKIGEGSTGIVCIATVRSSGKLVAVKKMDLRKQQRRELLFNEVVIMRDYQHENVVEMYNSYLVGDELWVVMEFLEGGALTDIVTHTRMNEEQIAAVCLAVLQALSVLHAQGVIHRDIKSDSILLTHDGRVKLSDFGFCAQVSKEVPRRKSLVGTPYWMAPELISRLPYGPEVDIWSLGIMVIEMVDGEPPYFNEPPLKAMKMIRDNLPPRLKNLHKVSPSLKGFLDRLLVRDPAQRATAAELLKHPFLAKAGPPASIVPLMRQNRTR
Sequence of UniProt Q14680 (whole entry, looked up): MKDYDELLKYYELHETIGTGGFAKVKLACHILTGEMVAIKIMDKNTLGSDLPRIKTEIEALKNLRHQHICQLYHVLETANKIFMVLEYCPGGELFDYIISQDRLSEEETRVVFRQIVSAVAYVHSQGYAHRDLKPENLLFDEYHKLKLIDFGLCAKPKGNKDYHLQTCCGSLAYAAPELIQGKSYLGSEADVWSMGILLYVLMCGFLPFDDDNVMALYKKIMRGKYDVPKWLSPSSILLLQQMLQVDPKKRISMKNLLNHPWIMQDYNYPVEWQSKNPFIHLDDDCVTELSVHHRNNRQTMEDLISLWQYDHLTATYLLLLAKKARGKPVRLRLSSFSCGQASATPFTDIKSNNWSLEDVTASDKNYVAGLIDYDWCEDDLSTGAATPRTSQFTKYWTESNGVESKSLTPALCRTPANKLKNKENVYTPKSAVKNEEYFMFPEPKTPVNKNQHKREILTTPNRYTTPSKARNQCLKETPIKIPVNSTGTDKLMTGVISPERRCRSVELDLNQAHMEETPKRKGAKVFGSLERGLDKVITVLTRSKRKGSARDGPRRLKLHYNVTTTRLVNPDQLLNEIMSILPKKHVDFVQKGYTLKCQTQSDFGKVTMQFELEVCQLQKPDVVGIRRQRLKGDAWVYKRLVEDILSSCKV
Sequence of UniProt Q04759 (whole entry, looked up): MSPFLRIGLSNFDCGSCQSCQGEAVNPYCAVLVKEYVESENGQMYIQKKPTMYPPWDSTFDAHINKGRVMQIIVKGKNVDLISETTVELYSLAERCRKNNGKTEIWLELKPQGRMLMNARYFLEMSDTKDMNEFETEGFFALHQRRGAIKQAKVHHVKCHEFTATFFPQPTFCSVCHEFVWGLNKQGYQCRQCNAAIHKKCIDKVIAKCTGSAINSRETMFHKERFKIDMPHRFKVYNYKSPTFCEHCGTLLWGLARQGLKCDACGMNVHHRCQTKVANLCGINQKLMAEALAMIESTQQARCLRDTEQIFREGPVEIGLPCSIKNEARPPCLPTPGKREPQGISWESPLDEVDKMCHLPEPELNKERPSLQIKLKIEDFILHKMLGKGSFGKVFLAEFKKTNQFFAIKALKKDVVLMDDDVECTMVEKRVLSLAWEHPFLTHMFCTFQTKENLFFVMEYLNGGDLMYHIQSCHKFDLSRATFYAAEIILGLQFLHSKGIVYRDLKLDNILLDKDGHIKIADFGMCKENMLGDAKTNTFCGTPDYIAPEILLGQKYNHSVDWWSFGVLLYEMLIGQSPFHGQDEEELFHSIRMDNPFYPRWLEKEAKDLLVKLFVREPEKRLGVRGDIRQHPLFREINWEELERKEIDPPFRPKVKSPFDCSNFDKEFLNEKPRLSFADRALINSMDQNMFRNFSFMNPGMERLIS
Sequence of UniProt P49674 (whole entry, looked up): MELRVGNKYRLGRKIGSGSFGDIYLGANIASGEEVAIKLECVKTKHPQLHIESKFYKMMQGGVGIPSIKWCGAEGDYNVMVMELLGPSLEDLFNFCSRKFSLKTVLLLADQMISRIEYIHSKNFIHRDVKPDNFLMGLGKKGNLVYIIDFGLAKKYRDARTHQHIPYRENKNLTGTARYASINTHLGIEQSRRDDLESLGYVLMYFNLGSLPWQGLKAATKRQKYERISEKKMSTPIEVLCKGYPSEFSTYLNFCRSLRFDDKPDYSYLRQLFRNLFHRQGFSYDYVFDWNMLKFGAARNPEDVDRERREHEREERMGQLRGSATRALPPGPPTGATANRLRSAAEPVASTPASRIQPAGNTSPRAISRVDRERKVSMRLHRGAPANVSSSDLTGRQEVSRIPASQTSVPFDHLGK

Study 1 — method: CCK-8; measurement: survival
SMILES: CC(C)S(=O)(=O)c1ccc2nccc(Nc3ccc4sc(C5CCCC5)nc4c3)c2c1.Cl
L929 RIPK3-/- reexpressing RIPK3 K51A; 12.5 µM, together with: zVAD: 105% and 101% and 95.9% and 110% and 94%
L929 RIPK3-/- reexpressing RIPK3 K51A; 3.125 µM, together with: zVAD: 97.3% and 97.9% and 96.3% and 100% and 96.8%
L929 RIPK3-/- reexpressing RIPK3 K51A; 1.563 µM: 94.6% and 96% and 91.4% and 97.5%
L929 RIPK3-/- reexpressing RIPK3 K51A/R69H; 1.563 µM: 97.7% and 95.2% and 81.4% and 99% and 94.9%
L929 RIPK3-/- reexpressing RIPK3 K51A; 1.563 µM, together with: zVAD: 99.8% and 94.4% and 103% and 96.2% and 101%

Study 2 — cell line: HEK-293T-ACE2-TMPRSS2; method: cell count; tested at: concentration not given; measurement: viability
COC(=O)c1ccc(NC(=O)C2CCN(c3c(C#N)cnc4ccccc34)CC2)cc1: 77%
C=CCNC(=O)C(CCSC)NC(=O)c1ccco1 (centres unmarked): 303%
OC(c1ccccn1)C1CCN(c2ncnc3[nH]ccc23)CC1 (centres unmarked): 98%
CCO[C@H]1COC[C@@H]1NC(=O)c1ccc2c(c1)nnn2C: 102%
COc1ccc(-n2c3c(cc(C(=O)NCCc4ccccc4)c2=O)C(=O)CC(C)(C)C3)cc1: 71%
Cc1cc2c3c([nH]c2cc1S(=O)(=O)N1CCN(Cc2ccccc2)CC1)CCCC3=O: 79%
COc1ccc(-c2ccnc(N)n2)cc1: 99%
NC(=O)c1ccc(N2CCN(Cc3ccc(-c4ccccn4)cc3)CC2)nc1: 80%
CCOC(=O)C1CCN(S(=O)(=O)c2ccc3c(c2)N(C(C)=O)CCCS3)CC1: 74%
Cc1ccc(S(=O)(=O)c2ccc(C(=O)NC3CCN(Cc4ccccc4)CC3)cn2)cc1C: 81%
Cc1cccc(N2CCN(C(=O)CCCn3c(C)c4cnn(-c5ccccc5)c(=O)c4c3C)CC2)c1C: 76%
CC(C)CC(=O)N1C2CCC1c1cnc(-c3ccc(F)cc3)nc1C2 (centres unmarked): 69%
COc1ccc2cc3c(N)nn(C(=O)c4ccccc4Cl)c3nc2c1: 118%
c1ccc(-c2ncn(CCc3c[nH]cn3)c2-c2ccncc2)cc1: 90%
Cc1ccc(-n2nnc(C(=O)N3CCN(Cc4ccccc4)CC3)c2-c2cccnc2)cc1: 66%
OCC1(Cc2ccccc2F)CCCN(Cc2cnn(-c3ccccc3)c2)C1 (centres unmarked): 110%
Cc1nc2ccccc2n1CC(O)COc1ccc(C(C)(C)C)cc1 (centres unmarked): 74%
CO[C@@H]1[C@@H](O[C@@H]2O[C@H](C)[C@@H](O[C@H]3C[C@@](C)(O)[C@@H](O)[C@H](C)O3)[C@H](N(C)C)[C@H]2O)[C@@H](CC=O)C[C@@H](C)[C@@H](O[C@H]2CC[C@H](N(C)C)[C@@H](C)O2)/C=C/C=C/C[C@@H](C)OC(=O)C[C@H]1O: 77%
CCc1nc(-c2ccc(N3CCN(C(=O)Cc4ccc(OC)c(OC)c4)CC3)cc2)no1: 76%
COc1cc(NC(=O)c2cnc(N3CCCCC3)c3ccccc23)cc(OC)c1OC: 77%
CSc1cccc(NC(=O)Cn2c(C)cc(-c3nnc(C)o3)c2C)c1: 107%
CCN(Cc1ccccc1)S(=O)(=O)c1ccc(C(=O)Nc2nc3c(s2)CN(C)CC3)cc1: 66%
COc1ccc(-c2cnc(C)o2)cc1S(=O)(=O)N1CCN(CCOc2ccc(Cl)cc2)CC1: 67%
Cc1ccc(S(=O)(=O)N2CCCCC2)cc1NC(=O)CN1CC(=O)Oc2ccccc21: 67%

Study 3 — cell line: HaCaT; tested at: 100 µM; time: 18 h; measurement: viability
Cc1ccc(/N=C/N(C)/C=N/c2ccc(C)cc2C)c(C)c1: 34.2%
c1ccc(NNc2ccccc2)cc1: 59%
N[C@@H](Cc1ccc(N(CCCl)CCCl)cc1)C(=O)O: 83.6%
Oc1cc(Cl)ccc1Oc1ccc(Cl)cc1Cl: 17.2%
CCC(=O)O[C@H]1CC[C@H]2[C@@H]3CCC4=CC(=O)CC[C@]4(C)[C@H]3CC[C@]12C: 46.8%

Study 4 — read-out: enzyme activity; action: inhibitor; tested at: 0.5 µM; baseline: control; measurement: remaining activity
Compound: COc1ccc2c(c[n+](C)c3c4cc5c(cc4ccc23)OCO5)c1OC
Casein kinase I isoform epsilon (CSNK1E, Homo sapiens, UniProt P49674): 90.7%
Protein kinase C theta type (PRKCQ, Homo sapiens, UniProt Q04759): 99.9%
Serine/threonine-protein kinase PAK 6 (PAK6, Homo sapiens, UniProt Q9NQU5): 96.1%
Tyrosine-protein kinase Yes (YES1, Homo sapiens, UniProt P07947): 93.8%
Serine/threonine-protein kinase BRSK2 (BRSK2, Homo sapiens, UniProt Q8IWQ3): 97%
Receptor tyrosine-protein kinase erbB-2 (ERBB2, Homo sapiens, UniProt P04626): 101%
Serine/threonine-protein kinase Sgk2 (SGK2, Homo sapiens, UniProt Q9HBY8): 99.1%
Ephrin type-B receptor 3 (EPHB3, Homo sapiens, UniProt P54753): 95.4%
Serine/threonine-protein kinase PAK 1 (PAK1, Homo sapiens, UniProt Q13153): 98.7%
Tyrosine-protein kinase receptor TYRO3 (TYRO3, Homo sapiens, UniProt Q06418): 95.7%
Maternal embryonic leucine zipper kinase (MELK, Homo sapiens, UniProt Q14680): 89.6%
Insulin-like growth factor 1 receptor (IGF1R, Homo sapiens, UniProt P08069): 93.3%
Serine/threonine-protein kinase PAK 4 (PAK4, Homo sapiens, UniProt O96013): 99.5%

Further values, each from its own experiment — read-out: cell-free assay; method: competition with immobilised ligand
pknB: Serine/threonine-protein kinase PknB (pknB, Mycobacterium tuberculosis, UniProt P9WI81)
Sequence of UniProt P9WI81 (whole entry, looked up): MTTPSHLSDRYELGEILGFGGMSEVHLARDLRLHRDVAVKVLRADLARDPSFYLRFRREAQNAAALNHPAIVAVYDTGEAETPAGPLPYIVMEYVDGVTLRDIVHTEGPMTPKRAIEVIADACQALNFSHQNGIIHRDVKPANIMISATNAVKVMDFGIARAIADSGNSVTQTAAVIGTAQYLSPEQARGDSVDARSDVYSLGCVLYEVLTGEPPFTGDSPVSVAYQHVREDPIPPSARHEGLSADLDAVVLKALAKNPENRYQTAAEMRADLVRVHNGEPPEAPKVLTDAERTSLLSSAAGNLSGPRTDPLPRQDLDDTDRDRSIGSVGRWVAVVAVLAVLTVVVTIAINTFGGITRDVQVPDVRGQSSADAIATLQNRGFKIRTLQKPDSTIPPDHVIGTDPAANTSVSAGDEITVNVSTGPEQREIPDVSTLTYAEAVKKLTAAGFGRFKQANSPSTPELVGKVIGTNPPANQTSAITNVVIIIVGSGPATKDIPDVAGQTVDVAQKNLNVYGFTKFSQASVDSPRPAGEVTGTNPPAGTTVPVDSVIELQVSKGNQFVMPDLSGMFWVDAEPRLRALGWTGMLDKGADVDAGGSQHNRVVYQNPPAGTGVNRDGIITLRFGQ
CNC(=O)Nc1ccc2c(c1)CC[C@@]21OC(=O)N(CC(=O)N(Cc2ccc(F)cc2)[C@@H](C)C(F)(F)F)C1=O
remaining binding (Cyclin-dependent kinase 2 homolog (CRK2, Plasmodium falciparum, UniProt P61075); 1 µM): 91%

CC(C)CC(=O)N1CCc2nc(-c3ccc(Br)cc3)nc(N(C)Cc3ccccc3)c2C1
remaining binding (pknB; 0.1 µM): 97%

O=C1NC(c2ccccn2)Sc2ccccc21 (centres unmarked)
remaining binding (pknB; 1 µM): 77%
